# Experimental data pooled from the literature.
# A part holds a random share of what one study measured. Values joined by “and” are separate records of one study, mostly repeats; a detail may differ.
# UniProt P07947, sequence (whole entry, looked up): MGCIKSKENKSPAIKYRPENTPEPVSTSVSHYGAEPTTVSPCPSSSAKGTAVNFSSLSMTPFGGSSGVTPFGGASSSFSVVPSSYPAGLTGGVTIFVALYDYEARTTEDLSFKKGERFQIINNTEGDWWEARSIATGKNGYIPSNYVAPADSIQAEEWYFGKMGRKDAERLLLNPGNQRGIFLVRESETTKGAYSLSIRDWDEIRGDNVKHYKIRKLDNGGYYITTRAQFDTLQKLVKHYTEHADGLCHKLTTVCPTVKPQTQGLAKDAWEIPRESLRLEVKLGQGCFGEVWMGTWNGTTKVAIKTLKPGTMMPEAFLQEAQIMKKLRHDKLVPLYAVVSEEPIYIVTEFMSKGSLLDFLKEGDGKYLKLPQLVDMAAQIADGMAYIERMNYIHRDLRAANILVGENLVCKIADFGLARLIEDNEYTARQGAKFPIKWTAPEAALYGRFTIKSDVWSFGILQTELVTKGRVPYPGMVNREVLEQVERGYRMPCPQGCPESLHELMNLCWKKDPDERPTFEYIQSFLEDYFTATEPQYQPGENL
# UniProt P08581, sequence (whole entry, looked up): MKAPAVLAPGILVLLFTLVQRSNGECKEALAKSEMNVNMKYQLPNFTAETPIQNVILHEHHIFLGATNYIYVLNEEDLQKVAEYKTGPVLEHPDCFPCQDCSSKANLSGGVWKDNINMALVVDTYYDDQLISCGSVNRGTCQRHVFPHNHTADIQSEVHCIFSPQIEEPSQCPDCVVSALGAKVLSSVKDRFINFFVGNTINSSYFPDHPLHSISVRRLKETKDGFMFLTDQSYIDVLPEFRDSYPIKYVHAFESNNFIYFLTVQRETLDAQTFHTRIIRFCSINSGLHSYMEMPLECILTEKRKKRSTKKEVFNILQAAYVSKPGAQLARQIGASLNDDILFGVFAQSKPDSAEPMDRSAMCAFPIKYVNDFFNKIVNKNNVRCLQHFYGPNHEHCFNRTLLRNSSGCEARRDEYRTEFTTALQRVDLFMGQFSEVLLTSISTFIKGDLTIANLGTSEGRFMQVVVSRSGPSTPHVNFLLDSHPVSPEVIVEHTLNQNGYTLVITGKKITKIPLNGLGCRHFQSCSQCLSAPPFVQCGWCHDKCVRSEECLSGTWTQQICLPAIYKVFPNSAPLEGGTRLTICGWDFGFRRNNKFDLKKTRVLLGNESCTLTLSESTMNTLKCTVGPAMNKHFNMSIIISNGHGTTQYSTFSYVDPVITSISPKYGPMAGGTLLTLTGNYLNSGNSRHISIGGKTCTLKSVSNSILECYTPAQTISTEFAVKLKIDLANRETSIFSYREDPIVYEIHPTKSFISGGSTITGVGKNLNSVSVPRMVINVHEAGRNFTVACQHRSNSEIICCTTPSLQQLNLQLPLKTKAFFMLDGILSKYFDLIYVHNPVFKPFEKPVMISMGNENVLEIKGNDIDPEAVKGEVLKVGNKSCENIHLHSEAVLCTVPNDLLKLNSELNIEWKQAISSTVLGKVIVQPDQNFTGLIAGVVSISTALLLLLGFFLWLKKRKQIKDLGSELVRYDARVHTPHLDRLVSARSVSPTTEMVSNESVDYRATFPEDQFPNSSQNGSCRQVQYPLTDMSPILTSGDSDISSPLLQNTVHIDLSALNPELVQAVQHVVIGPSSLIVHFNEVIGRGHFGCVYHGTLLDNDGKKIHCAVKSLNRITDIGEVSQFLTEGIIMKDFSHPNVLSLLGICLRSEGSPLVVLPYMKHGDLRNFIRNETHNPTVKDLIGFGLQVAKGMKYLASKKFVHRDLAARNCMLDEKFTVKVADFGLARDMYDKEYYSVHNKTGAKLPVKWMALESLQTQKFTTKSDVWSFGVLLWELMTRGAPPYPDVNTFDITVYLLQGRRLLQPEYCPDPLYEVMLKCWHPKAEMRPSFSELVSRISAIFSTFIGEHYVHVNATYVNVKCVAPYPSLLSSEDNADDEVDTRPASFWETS
# UniProt Q9UPZ9, sequence (whole entry, looked up): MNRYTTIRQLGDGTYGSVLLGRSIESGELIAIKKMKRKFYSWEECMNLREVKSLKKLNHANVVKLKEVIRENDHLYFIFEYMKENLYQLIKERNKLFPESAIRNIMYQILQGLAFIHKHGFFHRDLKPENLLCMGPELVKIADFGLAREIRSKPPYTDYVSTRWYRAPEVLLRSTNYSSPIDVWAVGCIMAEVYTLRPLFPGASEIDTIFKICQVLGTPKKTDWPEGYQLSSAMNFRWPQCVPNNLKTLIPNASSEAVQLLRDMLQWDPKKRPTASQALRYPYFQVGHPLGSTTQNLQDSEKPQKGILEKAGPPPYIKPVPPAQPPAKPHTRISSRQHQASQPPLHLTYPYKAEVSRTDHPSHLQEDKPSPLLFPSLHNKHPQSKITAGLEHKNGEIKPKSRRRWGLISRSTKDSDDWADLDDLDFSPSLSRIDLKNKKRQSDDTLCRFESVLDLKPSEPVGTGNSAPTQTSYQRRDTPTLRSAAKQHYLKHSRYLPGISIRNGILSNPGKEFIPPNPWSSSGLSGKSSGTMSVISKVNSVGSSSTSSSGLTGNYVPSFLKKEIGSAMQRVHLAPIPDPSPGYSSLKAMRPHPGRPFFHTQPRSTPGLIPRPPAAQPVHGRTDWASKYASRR
# UniProt Q08345, sequence (whole entry, looked up): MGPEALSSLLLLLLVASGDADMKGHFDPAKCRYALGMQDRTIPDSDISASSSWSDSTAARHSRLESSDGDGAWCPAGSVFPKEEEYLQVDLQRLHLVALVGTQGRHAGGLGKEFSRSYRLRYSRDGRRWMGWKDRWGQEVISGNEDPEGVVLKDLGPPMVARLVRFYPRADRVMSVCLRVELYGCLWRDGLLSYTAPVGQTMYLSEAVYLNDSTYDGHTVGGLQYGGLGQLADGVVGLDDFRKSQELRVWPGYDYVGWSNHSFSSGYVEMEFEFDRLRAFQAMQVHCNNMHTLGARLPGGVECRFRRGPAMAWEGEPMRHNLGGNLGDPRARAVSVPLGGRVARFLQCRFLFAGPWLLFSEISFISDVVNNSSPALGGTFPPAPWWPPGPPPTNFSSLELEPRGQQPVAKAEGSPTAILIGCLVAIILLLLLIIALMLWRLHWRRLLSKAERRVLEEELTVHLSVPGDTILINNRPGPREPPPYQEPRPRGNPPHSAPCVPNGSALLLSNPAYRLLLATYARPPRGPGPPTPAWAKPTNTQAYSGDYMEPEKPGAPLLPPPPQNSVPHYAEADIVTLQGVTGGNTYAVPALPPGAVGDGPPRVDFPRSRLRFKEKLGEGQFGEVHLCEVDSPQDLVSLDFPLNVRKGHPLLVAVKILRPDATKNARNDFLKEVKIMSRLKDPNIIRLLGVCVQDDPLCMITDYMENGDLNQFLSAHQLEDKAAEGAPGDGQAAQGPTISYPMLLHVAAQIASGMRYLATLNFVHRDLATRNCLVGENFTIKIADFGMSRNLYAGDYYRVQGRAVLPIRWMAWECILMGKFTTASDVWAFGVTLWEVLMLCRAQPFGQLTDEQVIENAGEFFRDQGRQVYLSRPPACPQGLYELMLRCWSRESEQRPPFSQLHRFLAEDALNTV
# UniProt P10721, sequence (whole entry, looked up): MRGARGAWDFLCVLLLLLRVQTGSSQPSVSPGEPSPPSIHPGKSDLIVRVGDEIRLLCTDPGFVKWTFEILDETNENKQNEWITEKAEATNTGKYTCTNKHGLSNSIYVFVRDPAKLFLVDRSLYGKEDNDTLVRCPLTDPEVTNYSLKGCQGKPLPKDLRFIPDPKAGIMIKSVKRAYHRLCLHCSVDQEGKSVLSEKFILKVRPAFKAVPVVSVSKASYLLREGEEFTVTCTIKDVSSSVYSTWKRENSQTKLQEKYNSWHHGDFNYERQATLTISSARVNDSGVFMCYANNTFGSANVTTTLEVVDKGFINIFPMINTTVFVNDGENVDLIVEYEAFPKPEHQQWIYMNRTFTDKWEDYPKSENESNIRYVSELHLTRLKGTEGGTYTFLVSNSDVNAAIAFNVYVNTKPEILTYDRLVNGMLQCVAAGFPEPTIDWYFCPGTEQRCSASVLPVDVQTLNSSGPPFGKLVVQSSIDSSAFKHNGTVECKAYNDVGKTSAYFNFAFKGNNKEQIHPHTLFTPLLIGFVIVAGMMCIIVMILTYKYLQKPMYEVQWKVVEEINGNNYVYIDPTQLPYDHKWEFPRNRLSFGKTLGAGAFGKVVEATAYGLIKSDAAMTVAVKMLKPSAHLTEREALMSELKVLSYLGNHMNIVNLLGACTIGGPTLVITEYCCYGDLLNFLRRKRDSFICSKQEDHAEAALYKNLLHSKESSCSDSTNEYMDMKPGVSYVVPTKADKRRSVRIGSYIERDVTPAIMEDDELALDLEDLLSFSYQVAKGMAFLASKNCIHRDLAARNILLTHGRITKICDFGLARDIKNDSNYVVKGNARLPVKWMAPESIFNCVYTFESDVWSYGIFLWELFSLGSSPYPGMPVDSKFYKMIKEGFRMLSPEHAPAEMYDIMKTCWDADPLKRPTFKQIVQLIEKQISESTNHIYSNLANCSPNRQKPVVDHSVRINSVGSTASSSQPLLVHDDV
# UniProt O14733, sequence (whole entry, looked up): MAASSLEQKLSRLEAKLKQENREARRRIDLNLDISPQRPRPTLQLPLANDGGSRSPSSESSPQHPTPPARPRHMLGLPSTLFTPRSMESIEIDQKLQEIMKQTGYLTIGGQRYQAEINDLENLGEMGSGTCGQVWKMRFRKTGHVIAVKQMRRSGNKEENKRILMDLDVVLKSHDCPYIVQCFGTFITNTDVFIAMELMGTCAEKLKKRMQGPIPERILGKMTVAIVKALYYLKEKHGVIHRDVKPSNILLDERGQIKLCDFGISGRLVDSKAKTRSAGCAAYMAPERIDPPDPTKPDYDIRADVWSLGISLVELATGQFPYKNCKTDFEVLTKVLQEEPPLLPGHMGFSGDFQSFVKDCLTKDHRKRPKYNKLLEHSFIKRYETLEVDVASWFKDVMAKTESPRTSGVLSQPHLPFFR

# Study 1
# Species: human
# Matrix: microsomes or S9
# Tested at: 2 µM
# Time: 0.5 h
Compound,remaining compound
Cc1nc(C)c(S(=O)(=O)N2C[C@H]3CCc4nnc(-c5ccncc5)n4[C@H]3C2)s1,91.1%
CCOc1cc(=O)n2c(c1C(=O)NCc1ccc(C)o1)CCCCC2,79.7%
CCn1c(=O)c(C(=O)N2CCOCC2)nn(-c2ccc(S(C)(=O)=O)cc2)c1=O,79.2%
Cc1nn2cnnc2c(C)c1CCC(=O)Nc1nccs1,13.3%
COc1ccc(Cn2c(=O)[nH]c(-c3ccc(F)cc3)c(-c3ccc(F)cc3)c2=O)cc1,> 100%

# Study 2
# SMILES: CN1CCN(c2cnc3c(C4CCN(C(=O)c5ccc(OC(F)(F)F)cc5N)CC4)ncnc3c2)CC1
# Technique: competition with immobilised ligand
# Tested at: 1 µM
target,read-out,remaining binding
"Epithelial discoidin domain-containing receptor 1 (DDR1, Homo sapiens, UniProt Q08345)",cell-free assay,100%
"Dual specificity mitogen-activated protein kinase kinase 7 (MAP2K7, Homo sapiens, UniProt O14733)",cell-free assay,100%
"Tyrosine-protein kinase Yes (YES1, Homo sapiens, UniProt P07947)",cell-free assay,100%
"Mast/stem cell growth factor receptor Kit (KIT, Homo sapiens, UniProt P10721)",cell-free assay,98%
"Hepatocyte growth factor receptor (MET, Homo sapiens, UniProt P08581)",cell-free assay,69%
"Phosphatidylinositol 4,5-bisphosphate 3-kinase catalytic subunit delta isoform (PIK3CD, Homo sapiens, UniProt O00329)",cell-free assay,86%
"Serine/threonine-protein kinase ICK (CILK1, Homo sapiens, UniProt Q9UPZ9)",binding,100%

# Study 3
# Target: MAP/microtubule affinity-regulating kinase 3 (MARK3, Homo sapiens, UniProt P27448)
# Read-out: enzyme activity
# Action: inhibitor
# Tested at: 0.5 µM
# Baseline: control
# Target sequence (P27448 1-753): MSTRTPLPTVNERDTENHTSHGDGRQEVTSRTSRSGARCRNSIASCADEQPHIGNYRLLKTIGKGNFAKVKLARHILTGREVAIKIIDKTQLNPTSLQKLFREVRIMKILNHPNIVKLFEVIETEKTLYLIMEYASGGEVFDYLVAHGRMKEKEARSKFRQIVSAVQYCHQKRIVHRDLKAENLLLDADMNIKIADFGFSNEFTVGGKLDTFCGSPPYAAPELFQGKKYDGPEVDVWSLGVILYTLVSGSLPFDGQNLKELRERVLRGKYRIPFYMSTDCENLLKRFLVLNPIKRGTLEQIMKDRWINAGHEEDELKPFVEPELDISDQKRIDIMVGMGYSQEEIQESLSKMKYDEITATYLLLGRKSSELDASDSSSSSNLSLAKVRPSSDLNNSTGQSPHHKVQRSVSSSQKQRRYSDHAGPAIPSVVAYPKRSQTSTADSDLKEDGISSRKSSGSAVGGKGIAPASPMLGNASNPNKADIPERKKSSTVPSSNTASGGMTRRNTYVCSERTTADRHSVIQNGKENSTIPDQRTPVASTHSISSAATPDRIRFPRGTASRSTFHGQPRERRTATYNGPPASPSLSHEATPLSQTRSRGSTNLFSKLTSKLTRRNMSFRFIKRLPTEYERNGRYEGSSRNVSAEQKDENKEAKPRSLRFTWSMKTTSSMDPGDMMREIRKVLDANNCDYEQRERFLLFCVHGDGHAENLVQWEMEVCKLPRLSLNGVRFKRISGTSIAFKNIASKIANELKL
SMILES,remaining activity
Cc1ccc(NC(=O)c2ccc(CN3CCN(C)CC3)cc2)cc1Nc1nc(-c2cccnc2)cs1,100%
COc1ccc(C(=O)Nc2sc3c(c2C(N)=O)CCCC3)cc1OC,94.1%
CO[C@H]1C[C@@H]2CC[C@@H](C)[C@@](O)(O2)C(=O)C(=O)N2CCCC[C@H]2C(=O)O[C@H]([C@H](C)C[C@@H]2CC[C@@H](O)[C@H](OC)C2)CC(=O)[C@H](C)/C=C(\C)[C@@H](O)[C@@H](OC)C(=O)[C@H](C)C[C@H](C)/C=C/C=C/C=C/1C,99%
Nc1[nH]nc2nc3ccccc3nc12,102%
Cn1sc(=O)n(Cc2ccccc2)c1=O,97.1%
O=C1NC(=O)C(c2cn(CCCO)c3ncccc23)=C1c1cnccn1,87.8%
COc1ccc(CNC(=O)Nc2ncc([N+](=O)[O-])s2)cc1,105%
O=c1c2ccccc2[nH]c(=S)n1CCN1CCC(=C(c2ccc(F)cc2)c2ccc(F)cc2)CC1,107%
O=C(O)c1ccc2c3c1cccc3c(=O)n1c3ccccc3nc21,82.6%
OCC(O)CCON=C1C(c2c(O)[nH]c3ccccc23)=Nc2ccccc21 (stereo not drawn),75.2%
O=C(CCCc1ccc(-c2ccccc2F)cc1)Nc1ccc(O)cc1,101%
CC(C)[C@H](CO)Nc1nc(Nc2cc(N)cc(Cl)c2)c2ncn(C(C)C)c2n1,85.2%
COc1cc2ncnc(Nc3ccc(F)c(Cl)c3)c2cc1OCCCN1CCOCC1,94.5%
O=C1NC(=O)C(c2cn(CCCn3ccnc3)c3ccccc23)=C1Nc1ccccc1,92.1%
CNC(=O)c1cc(Oc2ccc(NC(=O)Nc3ccc(Cl)c(C(F)(F)F)c3)cc2)ccn1,103%

# Study 4
# Cell line: mouse MPNST tumor cells
# Technique: high-content nuclear imaging
# Refers to: cell number
# Tested at: 10 µM
# Time: 12 h
# Notes: mean of 2 replicates
# Baseline: plate mean
# Reading: higher = more cells
SMILES,nuclei count
CN1CCN(CC/C=C2/c3ccccc3Sc3ccc(S(=O)(=O)N(C)C)cc32)CC1,-4.73 z-score
Cc1ccccc1N1C(=O)c2cc(S(N)(=O)=O)c(Cl)cc2NC1C (stereo not drawn),-0.473 z-score
CCN(CC)CCCCC1CCN(CC(=O)N2c3ccccc3C(=O)Nc3cccnc32)CC1,0.192 z-score
Nc1ncnc2c1ncn2[C@@H]1O[C@H](CO)C[C@H]1O,0.0953 z-score
Cc1cn(CCN2CCN(c3ccccc3-c3cc(C#N)cc(C(=O)NCCCN4CCCC4)c3)CC2)c2ccccc12,-6 z-score
COc1ccccc1C(=O)Nc1cc2c(cc1N1CCCC1)n(C)c(=O)n2C,1.78 z-score and 4.16 z-score

# Repeated from above (study 2):
target,read-out,remaining binding
"Epithelial discoidin domain-containing receptor 1 (DDR1, Homo sapiens, UniProt Q08345)",cell-free assay,100%
"Mast/stem cell growth factor receptor Kit (KIT, Homo sapiens, UniProt P10721)",cell-free assay,98%
